Experimental data of several laboratories.
Parts stem from different laboratories: compare values within a part only.
Sequence of UniProt P00519 (whole entry, unmodified, looked up): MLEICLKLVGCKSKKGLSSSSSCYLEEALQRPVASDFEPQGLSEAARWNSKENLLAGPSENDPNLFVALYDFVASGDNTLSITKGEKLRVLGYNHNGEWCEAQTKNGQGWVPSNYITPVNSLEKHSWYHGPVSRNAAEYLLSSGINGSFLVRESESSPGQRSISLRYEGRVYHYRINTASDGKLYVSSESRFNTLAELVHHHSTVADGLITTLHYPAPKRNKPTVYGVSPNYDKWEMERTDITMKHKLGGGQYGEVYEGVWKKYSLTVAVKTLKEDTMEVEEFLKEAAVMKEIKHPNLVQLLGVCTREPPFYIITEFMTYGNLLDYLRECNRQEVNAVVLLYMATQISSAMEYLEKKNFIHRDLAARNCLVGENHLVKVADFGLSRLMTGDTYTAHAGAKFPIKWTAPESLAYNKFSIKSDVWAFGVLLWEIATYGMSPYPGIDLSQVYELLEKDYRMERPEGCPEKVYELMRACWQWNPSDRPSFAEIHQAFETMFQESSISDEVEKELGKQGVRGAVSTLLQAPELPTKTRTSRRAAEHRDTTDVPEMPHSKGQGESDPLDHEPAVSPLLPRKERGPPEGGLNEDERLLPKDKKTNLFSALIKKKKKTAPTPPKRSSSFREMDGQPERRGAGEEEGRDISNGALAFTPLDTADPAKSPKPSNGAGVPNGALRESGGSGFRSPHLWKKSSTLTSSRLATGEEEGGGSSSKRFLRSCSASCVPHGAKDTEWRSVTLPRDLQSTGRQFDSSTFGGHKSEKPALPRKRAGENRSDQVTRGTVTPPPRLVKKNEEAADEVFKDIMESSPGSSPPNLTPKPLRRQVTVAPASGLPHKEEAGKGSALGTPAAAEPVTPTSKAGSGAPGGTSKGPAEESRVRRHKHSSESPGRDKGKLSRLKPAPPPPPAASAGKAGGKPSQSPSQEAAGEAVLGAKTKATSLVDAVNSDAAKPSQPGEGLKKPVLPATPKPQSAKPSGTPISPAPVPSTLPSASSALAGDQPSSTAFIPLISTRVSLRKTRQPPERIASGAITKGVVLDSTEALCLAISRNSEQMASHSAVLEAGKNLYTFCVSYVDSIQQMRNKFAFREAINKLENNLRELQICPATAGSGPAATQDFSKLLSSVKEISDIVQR
Sequence of UniProt Q9BYP7 (whole entry, looked up): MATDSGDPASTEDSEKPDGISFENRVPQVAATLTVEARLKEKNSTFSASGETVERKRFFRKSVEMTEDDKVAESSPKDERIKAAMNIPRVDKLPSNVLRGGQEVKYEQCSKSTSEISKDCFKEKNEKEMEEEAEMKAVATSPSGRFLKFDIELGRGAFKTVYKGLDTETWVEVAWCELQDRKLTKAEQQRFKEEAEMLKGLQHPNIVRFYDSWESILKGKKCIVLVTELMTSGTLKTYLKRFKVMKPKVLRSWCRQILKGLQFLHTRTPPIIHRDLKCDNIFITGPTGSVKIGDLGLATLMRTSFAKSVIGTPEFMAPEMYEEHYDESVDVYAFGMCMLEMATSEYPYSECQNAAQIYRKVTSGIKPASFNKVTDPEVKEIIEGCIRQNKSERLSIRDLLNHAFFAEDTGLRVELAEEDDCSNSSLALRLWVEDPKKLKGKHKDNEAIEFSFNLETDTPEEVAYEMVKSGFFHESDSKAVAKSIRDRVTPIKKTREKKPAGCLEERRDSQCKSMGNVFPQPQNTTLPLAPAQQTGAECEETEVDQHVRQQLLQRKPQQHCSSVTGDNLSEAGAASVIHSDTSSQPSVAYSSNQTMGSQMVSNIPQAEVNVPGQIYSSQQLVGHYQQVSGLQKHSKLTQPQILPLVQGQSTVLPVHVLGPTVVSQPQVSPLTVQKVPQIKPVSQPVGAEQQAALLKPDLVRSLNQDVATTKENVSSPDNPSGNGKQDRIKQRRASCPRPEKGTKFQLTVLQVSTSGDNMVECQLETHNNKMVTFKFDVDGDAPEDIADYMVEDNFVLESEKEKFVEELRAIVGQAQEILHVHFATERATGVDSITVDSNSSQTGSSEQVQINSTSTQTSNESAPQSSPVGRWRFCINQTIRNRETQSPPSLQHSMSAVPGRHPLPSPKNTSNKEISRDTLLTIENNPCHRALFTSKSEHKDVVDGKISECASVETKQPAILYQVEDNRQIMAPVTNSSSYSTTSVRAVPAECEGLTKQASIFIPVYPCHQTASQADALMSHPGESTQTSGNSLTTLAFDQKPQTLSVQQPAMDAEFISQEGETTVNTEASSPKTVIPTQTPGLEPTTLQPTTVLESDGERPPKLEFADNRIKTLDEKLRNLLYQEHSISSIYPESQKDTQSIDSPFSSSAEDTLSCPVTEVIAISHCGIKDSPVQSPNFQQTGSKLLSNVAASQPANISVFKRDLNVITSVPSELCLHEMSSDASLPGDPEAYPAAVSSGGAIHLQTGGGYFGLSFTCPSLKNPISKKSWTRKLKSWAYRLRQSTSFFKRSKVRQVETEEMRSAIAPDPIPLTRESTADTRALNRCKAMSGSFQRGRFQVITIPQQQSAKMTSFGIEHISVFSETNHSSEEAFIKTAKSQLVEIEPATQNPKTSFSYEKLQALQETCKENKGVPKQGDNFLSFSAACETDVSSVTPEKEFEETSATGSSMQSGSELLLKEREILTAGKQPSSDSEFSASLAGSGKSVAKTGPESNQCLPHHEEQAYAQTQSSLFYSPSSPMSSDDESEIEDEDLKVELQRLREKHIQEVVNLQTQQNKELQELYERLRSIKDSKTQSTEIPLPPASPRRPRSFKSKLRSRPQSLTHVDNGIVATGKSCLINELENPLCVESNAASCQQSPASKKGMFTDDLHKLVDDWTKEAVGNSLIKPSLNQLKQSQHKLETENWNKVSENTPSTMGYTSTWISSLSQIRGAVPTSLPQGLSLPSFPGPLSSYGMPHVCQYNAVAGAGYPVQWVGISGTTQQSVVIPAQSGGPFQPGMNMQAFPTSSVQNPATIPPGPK
Sequence of UniProt Q96AM1 (whole entry, looked up): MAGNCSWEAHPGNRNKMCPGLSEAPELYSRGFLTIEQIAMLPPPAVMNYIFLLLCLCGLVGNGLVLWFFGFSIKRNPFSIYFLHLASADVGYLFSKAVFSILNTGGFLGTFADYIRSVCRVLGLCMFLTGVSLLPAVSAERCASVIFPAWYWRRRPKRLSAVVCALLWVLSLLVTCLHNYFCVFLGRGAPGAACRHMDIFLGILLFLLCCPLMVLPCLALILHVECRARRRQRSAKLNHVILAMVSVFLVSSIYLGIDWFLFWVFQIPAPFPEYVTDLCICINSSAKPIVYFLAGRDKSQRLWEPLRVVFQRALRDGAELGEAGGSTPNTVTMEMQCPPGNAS
Sequence of UniProt Q13233 (whole entry, looked up): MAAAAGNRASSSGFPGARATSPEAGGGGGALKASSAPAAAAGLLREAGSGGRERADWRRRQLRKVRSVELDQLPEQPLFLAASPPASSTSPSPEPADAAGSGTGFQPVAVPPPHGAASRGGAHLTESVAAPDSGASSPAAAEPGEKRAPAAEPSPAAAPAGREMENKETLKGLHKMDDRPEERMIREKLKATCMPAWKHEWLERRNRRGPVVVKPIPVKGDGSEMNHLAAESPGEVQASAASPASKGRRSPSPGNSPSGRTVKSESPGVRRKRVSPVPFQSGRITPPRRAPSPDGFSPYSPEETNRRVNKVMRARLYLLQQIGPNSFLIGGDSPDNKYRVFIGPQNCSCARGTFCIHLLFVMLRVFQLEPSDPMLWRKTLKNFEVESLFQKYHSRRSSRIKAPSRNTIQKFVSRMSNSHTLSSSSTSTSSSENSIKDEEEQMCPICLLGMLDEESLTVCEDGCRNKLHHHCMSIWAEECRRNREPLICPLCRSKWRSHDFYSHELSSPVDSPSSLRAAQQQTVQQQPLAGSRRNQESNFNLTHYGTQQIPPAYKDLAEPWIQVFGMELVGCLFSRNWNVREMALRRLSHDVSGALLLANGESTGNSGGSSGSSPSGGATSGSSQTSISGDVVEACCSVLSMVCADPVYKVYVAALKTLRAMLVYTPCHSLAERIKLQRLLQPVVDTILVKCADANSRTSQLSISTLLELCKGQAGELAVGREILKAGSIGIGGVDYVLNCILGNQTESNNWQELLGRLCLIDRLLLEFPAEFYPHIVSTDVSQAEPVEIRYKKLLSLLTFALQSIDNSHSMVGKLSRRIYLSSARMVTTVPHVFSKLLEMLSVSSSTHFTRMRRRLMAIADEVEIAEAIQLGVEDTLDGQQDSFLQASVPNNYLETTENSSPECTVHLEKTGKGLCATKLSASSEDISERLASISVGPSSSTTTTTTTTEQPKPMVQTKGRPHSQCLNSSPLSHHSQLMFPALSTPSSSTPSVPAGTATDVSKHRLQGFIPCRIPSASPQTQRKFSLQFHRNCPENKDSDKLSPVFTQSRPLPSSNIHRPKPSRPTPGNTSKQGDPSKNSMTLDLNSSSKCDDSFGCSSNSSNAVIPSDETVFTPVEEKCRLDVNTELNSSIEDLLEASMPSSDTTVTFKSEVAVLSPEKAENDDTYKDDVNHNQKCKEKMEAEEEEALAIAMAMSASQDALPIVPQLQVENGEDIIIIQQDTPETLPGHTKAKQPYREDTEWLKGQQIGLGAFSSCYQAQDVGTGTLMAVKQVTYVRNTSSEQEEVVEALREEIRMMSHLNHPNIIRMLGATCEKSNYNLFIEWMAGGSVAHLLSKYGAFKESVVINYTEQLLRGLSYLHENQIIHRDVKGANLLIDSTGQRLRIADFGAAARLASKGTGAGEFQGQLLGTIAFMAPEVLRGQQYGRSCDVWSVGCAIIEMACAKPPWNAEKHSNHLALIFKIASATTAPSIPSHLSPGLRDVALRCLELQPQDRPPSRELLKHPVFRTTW
Sequence of UniProt O75716 (whole entry, looked up): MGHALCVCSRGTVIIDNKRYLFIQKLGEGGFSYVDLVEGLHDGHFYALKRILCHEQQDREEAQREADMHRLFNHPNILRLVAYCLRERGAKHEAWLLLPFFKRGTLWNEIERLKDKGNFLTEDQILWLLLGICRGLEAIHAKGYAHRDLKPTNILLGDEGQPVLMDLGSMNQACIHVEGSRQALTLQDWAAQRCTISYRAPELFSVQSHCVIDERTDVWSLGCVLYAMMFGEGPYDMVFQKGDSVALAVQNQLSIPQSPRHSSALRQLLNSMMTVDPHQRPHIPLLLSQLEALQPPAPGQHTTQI

Set 1 — SMILES: O=C(O)/C=C/c1cc(Br)c(Br)c(Br)c1Br; observed: enzyme activity; action: inhibitor; tested at: 0.5 µM; baseline: control
| target | remaining activity [%] |
| --- | --- |
| STK16 (Homo sapiens, UniProt O75716) | 90.3 |
| EPHB4 (Homo sapiens, UniProt P54760) | 81.2 |
| AXL (Homo sapiens, UniProt P30530) | 90.9 |
| Cyclin-dependent kinase 4, with cyclin D3 (CDK4, Homo sapiens, UniProt P11802) | 97.9 |
| Cyclin-dependent kinase 1, with cyclin B (CDK1, Homo sapiens, UniProt P06493) | 62.7 |
| RPS6KA5 (Homo sapiens, UniProt O75582) | 88.3 |
| DYRK3 (Homo sapiens, UniProt O43781) | 100 |
| SRMS (Homo sapiens, UniProt Q9H3Y6) | 89.3 |
| EPHB1 (Homo sapiens, UniProt P54762) | 95.2 |
| MAP4K4 (Homo sapiens, UniProt O95819) | 63.5 |
| HIPK4 (Homo sapiens, UniProt Q8NE63) | 102 |
| MAPKAPK3 (Homo sapiens, UniProt Q16644) | 86.3 |
| RPS6KA6 (Homo sapiens, UniProt Q9UK32) | 86.9 |
| TSSK2 (Homo sapiens, UniProt Q96PF2) | 98.1 |
| BLK (Homo sapiens, UniProt P51451) | 95.1 |
| EPHA4 (Homo sapiens, UniProt P54764) | 88.8 |
| PHKG1 (Homo sapiens, UniProt Q16816) | 87.6 |
| HIPK2 (Homo sapiens, UniProt Q9H2X6) | 82.2 |
| STK17A (Homo sapiens, UniProt Q9UEE5) | 84.6 |
| CAMK2B (Homo sapiens, UniProt Q13554) | 56.1 |
| WNK3 (Homo sapiens, UniProt Q9BYP7) | 89.8 |
| PDPK1 (Homo sapiens, UniProt O15530) | 96.2 |
| ABL1 (Homo sapiens, UniProt P00519) | 81.5 |

Set 2 — Structure (SMILES): CC(C)CN(C)c1nc(N)c(C(=O)N=C(N)N)nc1Cl; observed: β-arrestin recruitment; action: agonist; method: PRESTO-Tango; tested at: 10 µM; baseline: untreated
| target | fold over basal |
| --- | --- |
| CRHR2 (Homo sapiens, UniProt Q13324) | 0.67 |
| MCHR1 (Homo sapiens, UniProt Q99705) | 1.11 |
| CASR (Homo sapiens, UniProt P41180) | 0.56 |
| PTGER4 (Homo sapiens, UniProt P35408) | 0.79 |
| GPR39 (Homo sapiens, UniProt O43194) | 0.86 |
| GPR32 (Homo sapiens, UniProt O75388) | 1.15 |
| CCR5 (Homo sapiens, UniProt P51681) | 0.55 |
| Mas-related G-protein coupled receptor member F (MRGPRF, Homo sapiens, UniProt Q96AM1) | 1.25 |
| PTGDR2 (Homo sapiens, UniProt Q9Y5Y4) | 1.1 |
| G-protein coupled receptor 22 (GPR22, Homo sapiens, UniProt Q99680) | 0.67 |
| Metabotropic glycine receptor (GPR158, Homo sapiens, UniProt Q5T848) | 0.67 |
| CCR8 (Homo sapiens, UniProt P51685) | 0.66 |
| PTGIR (Homo sapiens, UniProt P43119) | 0.66 |
| Relaxin receptor 1 (RXFP1, Homo sapiens, UniProt Q9HBX9) | 0.79 |
| CCR10 (Homo sapiens, UniProt P46092) | 0.71 |
| FFAR4 (Homo sapiens, UniProt Q5NUL3) | 1.23 |

Set 3 — host: mouse; sample: microsomes or S9; tested at: 2 µM; time: 0.5 h
| Compound | remaining compound [%] |
| --- | --- |
| O=C1CC(N2CCC3(CC2)OCCO3)C(=O)N1c1ccc2c(c1)OCO2 (stereo not shown) | 39.4 |
| CC(=O)c1cccc(NC(=O)CN(C)S(=O)(=O)c2c(C)cc(C)cc2C)c1 | 22.4 |
| CC(C)(C)n1cc(Nc2cccc(F)c2C#N)cn1 | 0.936 |
| c1ccc(-c2csc3nc(-c4cccnc4)nc(Oc4ccc5ccncc5c4)c23)cc1 | 22.7 |
| O=C(CN1C(C(=O)c2ccccc2)=C(O)c2ccccc2S1(=O)=O)Nc1ccc(Br)cc1F | 25.9 |
| COC(=O)c1ccc(C2Nc3cc(C)c(C)cc3NC3=C2C(=O)CC(C)(C)C3)cc1 (stereo not shown) | 0.113 |
| Cc1cc(C)c(C)c(S(=O)(=O)NCCOCCO)c1C | 1.34 |
| COC(=O)C1C(C(=O)OC)C2(OC(c3ccccc3)=CC2=O)C12OC(c1ccccc1)=CC2=O (stereo not shown) | 60.2 |
| CCc1ccc(-n2c3nc(=O)[nH]c(=O)c-3cc3c(Cl)cccc32)cc1 | 20.6 |
| O=S(=O)(NCCCOC1CCCCC1)c1ccc(Cl)c(-c2nnn[nH]2)c1 | 48.9 |
| Cc1nc(N2CCN(C)CC2)nc2c1C(=O)CC(c1ccco1)C2 (stereo not shown) | 0.114 |
| CC(C)S(=O)(=O)c1ccccc1C(=O)N1CC(C)(C)c2c(Cl)cccc21 | 5.28 |
| COC(=O)CC(c1ccc(OC)c(OC(C)C)c1)c1c(O)cc(C)[nH]c1=O (stereo not shown) | 61.9 |
| CC(C)c1noc(CCCn2ccc(-c3ccc(Br)cc3)n2)n1 | > 100 |
| Cc1ccccc1-c1nc2ccccc2cc1CN(C(=O)CCNC(=O)OC(C)(C)C)c1ccnc(S(C)(=O)=O)n1 | 10.6 |

Set 4 — method: competition with immobilised ligand; tested at: 1 µM
Compound: O=C(Nc1cnc(Oc2ccc(F)cc2)nc1)N1CCc2ncccc2[C@@H]1c1ccc(F)cc1
| target | test | remaining binding |
| --- | --- | --- |
| STK10 (Homo sapiens, UniProt O94804) | cell-free assay | 94% |
| SIK2 (Homo sapiens, UniProt Q9H0K1) | cell-free assay | 89% |
| Aurora kinase C (AURKC, Homo sapiens, UniProt Q9UQB9) | cell-free assay | 81% |
| Tyrosine-protein kinase ABL1, non-phosphorylated (ABL1, Homo sapiens, UniProt P00519, F317L) | cell-free assay | 81% |
| CDK13 (Homo sapiens, UniProt Q14004) | cell-free assay | 100% |
| MAP3K3 (Homo sapiens, UniProt Q99759) | cell-free assay | 97% |
| BMPR2 (Homo sapiens, UniProt Q13873) | cell-free assay | 88% |
| SRC (Homo sapiens, UniProt P12931) | cell-free assay | 93% |
| SBK1 (Homo sapiens, UniProt Q52WX2) | cell-free assay | 100% |
| DMPK (Homo sapiens, UniProt Q09013) | cell-free assay | 98% |
| MAP3K4 (Homo sapiens, UniProt Q9Y6R4) | cell-free assay | 89% |
| MYLK2 (Homo sapiens, UniProt Q9H1R3) | cell-free assay | 90% |
| MAP3K6 (Homo sapiens, UniProt O95382) | cell-free assay | 94% |
| BMPR1B (Homo sapiens, UniProt O00238) | cell-free assay | 98% |
| TAOK3 (Homo sapiens, UniProt Q9H2K8) | cell-free assay | 100% |
| MAP3K1 (Homo sapiens, UniProt Q13233) | cell-free assay | 89% |
| Ribosomal protein S6 kinase alpha-4, N-terminal kinase domain (RPS6KA4, Homo sapiens, UniProt O75676) | cell-free assay | 91% |
| PIK3CA (Homo sapiens, UniProt P42336, E542K) | cell-free assay | 81% |
| TXK (Homo sapiens, UniProt P42681) | binding | 87% |
| MKNK2 (Homo sapiens, UniProt Q9HBH9) | cell-free assay | 94% |
| LIM domain kinase 2 (LIMK2, Homo sapiens, UniProt P53671) | cell-free assay | 97% |
| EGFR (Homo sapiens, UniProt P00533, T790M) | cell-free assay | 91% |
| WNK3 (Homo sapiens, UniProt Q9BYP7) | cell-free assay | 93% |
| BMP2K (Homo sapiens, UniProt Q9NSY1) | cell-free assay | 93% |
| PLK1 (Homo sapiens, UniProt P53350) | cell-free assay | 80% |

For quick reference, copied from above (set 1):
| target | remaining activity [%] |
| --- | --- |
| MAP4K4 (Homo sapiens, UniProt O95819) | 63.5 |
| PDPK1 (Homo sapiens, UniProt O15530) | 96.2 |
| SRMS (Homo sapiens, UniProt Q9H3Y6) | 89.3 |
| Cyclin-dependent kinase 4, with cyclin D3 (CDK4, Homo sapiens, UniProt P11802) | 97.9 |
